Experimental data of several laboratories.
Numbered parts are unrelated; each lists some results of a single study.

Set 1 — method: protein-binding microarray; molecule type: double-stranded DNA, one strand shown; medium: in vitro; tested at: 2200 nM top; setting: 60-bp whole probe; with: salmon DNA 0.4 mg/ml; relative to: random background probes; reading: higher = stronger binding; constant ends, left off below: GCCTAGCAC … GTCTTGATTCGCTTGACGCTGCTG
Target: Interferon regulatory factor 7, full length, phosphomimetic (IRF7, Homo sapiens, UniProt Q92985, residues 1-503, S471D/S472D/S475D/S476D/S477D/S483D/S484D/S487D)
Construct (chain): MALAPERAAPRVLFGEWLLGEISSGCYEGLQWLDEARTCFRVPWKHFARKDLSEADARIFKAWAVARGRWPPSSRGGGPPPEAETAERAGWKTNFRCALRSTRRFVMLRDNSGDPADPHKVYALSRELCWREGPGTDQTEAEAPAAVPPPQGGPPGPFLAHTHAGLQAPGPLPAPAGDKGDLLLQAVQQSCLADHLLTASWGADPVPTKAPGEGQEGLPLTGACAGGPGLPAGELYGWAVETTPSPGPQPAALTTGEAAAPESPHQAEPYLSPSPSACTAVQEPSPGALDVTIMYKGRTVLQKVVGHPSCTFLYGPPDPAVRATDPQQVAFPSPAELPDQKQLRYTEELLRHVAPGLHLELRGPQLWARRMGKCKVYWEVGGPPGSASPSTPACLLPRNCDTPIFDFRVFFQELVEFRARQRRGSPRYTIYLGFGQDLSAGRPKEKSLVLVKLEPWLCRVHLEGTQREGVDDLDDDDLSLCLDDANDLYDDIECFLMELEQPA
Sequence	fitted relative affinity [z-score]
GACGGACTGGGGTATCGGGTCGTGCTA	-0.254
GACGGTATAGGGTATCGGGACGTGCTA	-0.517
GACGGTCTCGGTAACGGGACGTGCTAG	-0.725
CTTGAACCTGGGAGGTGGAGGTGCTAG	-1.01
GACGGTCTCATACTGCTGACGTGCTAG	0.298
GACGGACAGCTTTTCCTGACGTGCTAG	0.298
TCATTTCTCCTATTTAAACTGTGCTAG	2.48
TTAGGTTTCGGGTATCGGGTAGTGCTA	6.12
TCAACACTAATTTTCAAACTGTGCTAG	0.326
GACGGTATCGACCCTGGGGACGTGCTA	-0.727
AAATGATTGGTTGAACATGAGTGCTAG	-0.217
TCACATTTAATTATATGACTGTGCTAG	0.511
GACGATTTCAGTTTCGAGAAGTGCTAG	3.77
GCCCATCTCTGCTCCTTCTGGTGCTAG	0.994
TCATTTTTTGGTTTCTGACTGTGCTAG	4.08
TTAGATATGGGGTATCGATTAGTGCTA	0.451

Set 2 — method: RNA Bind-n-Seq; molecule type: RNA; medium: in vitro; tested at: 365 nM; relative to: no-protein control; reading: higher = stronger binding
Target: RNA binding protein fox-1 homolog 2, RRM domain, GST-SBP tag (RBFOX2, Homo sapiens, UniProt O43251-10, residues 100-194)
Setting: natural RNA segment, single round, ends assumed
Constant ends, left off below: GGGAGUUCUACAGUCCGACGAUC … UGGAAUUCUCGGGUGCCAA
Residues (chain): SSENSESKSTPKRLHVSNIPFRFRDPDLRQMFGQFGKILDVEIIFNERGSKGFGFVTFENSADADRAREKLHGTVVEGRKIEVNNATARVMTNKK
Sequence	RBNS enrichment (R)
GCUGGCUGCCUGCGGGCCUAAGCCUUCCCAGGAUCUUCAGGACACUUGACAGACUUGUGUUUUCUGGUCUGAGCUGCCUCCACAGGUCCCUCCAGCAAGCCUCACUGCAC	2.23
AAGUGUAUUUAUACCAAGAUGGAGAUCUUGACUUCUUGAAUAUAUCUGGACUGGUAAAAUCUUGAUGAGGCUCAUAAAAUGAGUUUGGGAAUUGUGUAUAGCUGAUUUUU	2.49
GGACAGAGGGAGAGAGUCCACUACUGAAAGGAACGCUCAAACCUCCUCACACAGGUCCUUGUGCCUGGGCACUCCCCCGCCCCAUAUGCAUACACACAUACAUGCUUUUG	0.298
CAGGCCAGGCCUGGGUCCUGCCCUCCCAUGGGGUGACUCAUGACCCCUCCAGCCAGGACUCUCCUACAUGUGGCCCCCAUAGGCCUCUGUGGCUGCAAGGCGGUCAGUUG	0.239
CUCCAGUGAAAAUAGGUUGAAAGCCUGUUUUGAUCCAGUGUUUUCUCCCAAAGAACUCUACGUUAAACAUACACCAGUUUUCUUUUAUGACCUGGAGUUAGGAGUGAGUU	0.317
GGACAGCAAGCAAACCAUUUCUCUCCGUCUGUUCUGUUUUUCUCCUAGUCCCUCUCCUGCCACCUCUCCAAGACUUCCGUGGGACACCCACUUCCCUCUGUCCUAGUUCU	0.878
CUAGAAAACACACUUCCUGCACCAACACCAAUACCCUUUCAAAAGAGUUGUCUGCAACAUUUUUGUUUUCUUUUUUAAUGUCCAAAAGUGGGGGAAAGUGCUAUUUCCUA	0.482
UCUGUGGGAUUUUUAGACAUUUUUCGACAUCAGGGUAUUUGUUCCACCUUGGCCAGGCCUCCUCGGAGAAGCUUGUCCCCCGUGUGGGAGGGACGGAGCCGGACUGGACA	0.383
CAAUAGCAUUUUCCUCUGCUUUGAAAUUUCCAGAAAUCAUCUUGGGCCAAGGCAAUGACACAUACAGAAAAGUCAUGGGCAACUUCUCCACCAAGGCUGAUUUAUGUUAU	0.445
CAGGGAUGCCUGGAGGCAUAUAUCCAGCUGCCACCAAGGGGCACUGUUUGUUCCCACUUAUGUGAGUGACCCCAUCCAUCCAUGACCAGAGGAUUAUUUUCCUGCCUUGG	0.621
AAUAUAGUUUUUUUAGUAUAAUUCCACUGCACUUAACACUAAUGUUCAUGUUGGUAUAGAAAUGUCUUUUAAAUCCUAUUGUUGAGCAAGAUCUGCUCUCUGUCUAUGGU	0.278
CAAGUCUGUGAGUGCGUCUGAGGGGACAUCGCCAAGGACUGACUGAGACACGAUGCCGAGACCUCAAGCCCUGAGGGGCAGUCCCAAAACCCUUACAGUGAAGAUGUUUA	0.578

Set 3 — method: universal PBM; molecule type: double-stranded DNA, one strand shown; medium: in vitro; tested at: 600 nM; reading: higher = stronger binding
Target: Sal-like protein 4, full length isoform A (SALL4, Homo sapiens, UniProt Q9UJQ4, residues 1-1053)
Sequence of UniProt Q9UJQ4 (whole entry, looked up): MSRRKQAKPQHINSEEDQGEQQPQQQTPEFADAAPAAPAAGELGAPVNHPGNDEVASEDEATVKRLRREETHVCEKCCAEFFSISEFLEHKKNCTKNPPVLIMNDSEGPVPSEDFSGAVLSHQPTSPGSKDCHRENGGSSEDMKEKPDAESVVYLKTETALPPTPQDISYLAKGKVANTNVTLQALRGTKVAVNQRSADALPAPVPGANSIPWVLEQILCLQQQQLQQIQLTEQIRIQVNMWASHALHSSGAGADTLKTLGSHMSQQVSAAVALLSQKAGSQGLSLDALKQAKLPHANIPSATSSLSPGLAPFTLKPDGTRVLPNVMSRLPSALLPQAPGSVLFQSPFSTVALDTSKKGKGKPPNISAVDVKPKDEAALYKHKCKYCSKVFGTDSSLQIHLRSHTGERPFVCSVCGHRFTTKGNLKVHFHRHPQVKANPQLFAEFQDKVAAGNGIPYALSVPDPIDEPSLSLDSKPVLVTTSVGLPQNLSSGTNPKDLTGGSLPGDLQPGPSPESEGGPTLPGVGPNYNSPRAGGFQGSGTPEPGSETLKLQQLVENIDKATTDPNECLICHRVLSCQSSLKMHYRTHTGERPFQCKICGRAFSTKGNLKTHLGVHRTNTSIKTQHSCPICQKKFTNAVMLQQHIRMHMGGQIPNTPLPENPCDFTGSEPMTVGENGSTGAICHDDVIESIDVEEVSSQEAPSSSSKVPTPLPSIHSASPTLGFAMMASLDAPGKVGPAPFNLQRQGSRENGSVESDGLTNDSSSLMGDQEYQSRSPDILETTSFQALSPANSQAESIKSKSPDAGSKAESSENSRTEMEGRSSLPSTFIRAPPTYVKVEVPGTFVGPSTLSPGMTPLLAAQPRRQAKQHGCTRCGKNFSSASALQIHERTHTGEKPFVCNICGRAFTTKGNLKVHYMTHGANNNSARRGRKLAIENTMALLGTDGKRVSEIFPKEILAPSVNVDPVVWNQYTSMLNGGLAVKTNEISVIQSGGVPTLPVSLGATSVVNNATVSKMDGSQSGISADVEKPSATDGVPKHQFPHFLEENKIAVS
Setting: 8-mer, flanks averaged, mean of replicates
Sequence	E-score
AAGAATCT	0.0174
ACGTCTTC	-0.0111
CTGTACGC	-0.104
ATTACCCG	-0.00619
GAAGCCGC	-0.135
CCAATGGA	-0.11
CCCTGACC	-0.276
CCGGGTAC	-0.37
GAGCGCCC	-0.388
GGGCGCCC	-0.371
CGGGACAC	-0.309
AGACAGAC	-0.0331
GGGGAGAC	-0.296
AGTCTTAG	-0.0983
AACTAGCC	-0.116
AATTGGGA	0.102
TACTCCGA	-0.0304
TACACGGA	0.16
CAGCCGGG	-0.378
CGATTTAC	0.0772
AACTTGCG	-0.149
AAGCTCGG	-0.213
AGCTTACT	-0.0519
CTCGCCTA	-0.126
ACTGTCAG	-0.0183

Set 4 — method: competition protein-binding microarray; molecule type: double-stranded DNA, one strand shown; medium: in vitro; tested at: 2 µM; with: Pho4 competitor, 0.05 µM; reading: higher = stronger binding; constant ends, left off below: … GTCTTGATTCGCTTGACGCTGCTG
Target: Centromere-binding protein 1, full length, His-tagged (CBF1, Saccharomyces cerevisiae, UniProt P17106, residues 1-351)
Sequence of UniProt P17106 (whole entry, looked up): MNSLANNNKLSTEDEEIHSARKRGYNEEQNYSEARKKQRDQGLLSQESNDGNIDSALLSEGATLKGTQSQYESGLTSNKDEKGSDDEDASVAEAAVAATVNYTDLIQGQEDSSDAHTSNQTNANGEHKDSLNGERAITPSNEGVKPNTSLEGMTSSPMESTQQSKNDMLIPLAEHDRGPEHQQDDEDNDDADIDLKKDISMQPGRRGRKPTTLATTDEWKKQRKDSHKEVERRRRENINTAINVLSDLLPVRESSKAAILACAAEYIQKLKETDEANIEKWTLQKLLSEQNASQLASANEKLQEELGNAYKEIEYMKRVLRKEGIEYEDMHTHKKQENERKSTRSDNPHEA
Setting: whole 60-bp probe, lowest competitor level
Sequence	fluorescence intensity
GTAACAGTATACGATCATGTGATATTACGTACATAA	1880 a.u.
ATGAATTACCTAACTCAGGTGACGGGGTGTTCAAAT	130 a.u.
CTTTCCCGATCTTGCAATGTGGGTGTAGCACATTTG	74.5 a.u.
CTTATCTCGAGGAGTAACGTGGGTAGTTTGTTGGTC	103 a.u.
CTTCTGTAAATTTTTCACGTGGGATGACGCGCCCCG	613 a.u.
TACTTCGATGCCCAACACGTTATTCACATCTCTCAA	103 a.u.
CATGATTTCCTATTGTGCGTGCCGAATTTACGGACG	194 a.u.
GAATTGTGGCCGCGACACCTGACAAACAATCCTCAG	187 a.u.
GCCAAAGTGGTCTTTCACATGCTTACCTACCCGCTA	75.8 a.u.
AAACTATTTTTGGCAGACGTGTTGACTGATGATGAT	89.3 a.u.
CCCAGACCCACCCAGATCGTGATGGTTGTTACCATC	69 a.u.
AAATTACTAAGTTGGATAGTGGGTGACGCCGTATGA	77.7 a.u.
CATACCCAACCTTGGTACGTGGGTGAAGATATTTGT	66.3 a.u.
CAAAATGGCAACTGGCACGTGAAGCTGTCGATATTG	1120 a.u.
GAGGTTGGCCTTTTGCACGTAGCTGTTGCTGTTGCT	69.6 a.u.
AAATTACTAAGTTTTCACGTGAATTACCCCGTATGA	787 a.u.
AACTGCTGAAGTCCCCATGTGACAGTGAGCGGGGTC	284 a.u.
CGGAATTCCTGAACCGCCGTGACTCGGAGAATAAAT	80.9 a.u.

Set 5 — method: RNA Bind-n-Seq; molecule type: RNA; medium: in vitro; tested at: not given; relative to: input RNA pool; reading: higher = stronger binding
Target: RING finger protein unkempt homolog, zinc fingers 1-6, GST-SBP tag (UNK, Homo sapiens, UniProt Q9C0B0, residues 30-357)
Setting: RNA with constant flanks, human-mouse chimeric sites, ends assumed
Constant ends, left off below: GGGAGUUCUACAGUCCGACGAUC … CAACAGAGGAUUGAGCAUCA
Residues (chain): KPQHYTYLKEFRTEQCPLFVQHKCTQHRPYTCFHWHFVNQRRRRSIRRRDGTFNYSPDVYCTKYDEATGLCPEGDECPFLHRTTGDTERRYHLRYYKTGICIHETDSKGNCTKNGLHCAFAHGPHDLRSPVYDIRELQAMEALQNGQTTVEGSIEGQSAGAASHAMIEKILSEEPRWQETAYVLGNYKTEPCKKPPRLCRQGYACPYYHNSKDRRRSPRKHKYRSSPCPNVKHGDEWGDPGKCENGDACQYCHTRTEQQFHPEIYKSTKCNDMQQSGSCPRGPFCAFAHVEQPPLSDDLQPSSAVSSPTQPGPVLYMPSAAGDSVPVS
Sequence	bound/input enrichment
UUACCCGAAAAUGAAGAUGAGCUGGAGAGCACCAACAGACGCUAUACCAAGAGGGACUGCAGCACUUUCCUCAGAACUAGUGAGACGGGCAUCGUGGACCAGGUCAUGGUCACUCUCAAC	0.28 ratio
CGCGUCCCCUUCUCGCUGCGGAGCCCGAGCUGGGAACCAUUCCGGGACUGGUACCCUGCACACAGCCGCCUCUUCGAUCAAGCUUUCGGGGUGCCCCGGUUGCCCGAUGAGUGGUCGCAG	0.0818 ratio
UGACAAGGGCACUGCAGAGCCAUGCCUUUCCUUGACAUACAGAAAAAGCUGGGCAUCAACAUAGAUCGGCACUUUAUGUUCCUAAGCGGUGAACAGCCCUAUAAGAACGCCGCUCGGUGC	0.117 ratio
AACUUCGUGCAUCGGUUUCCCUUUGUAGCUGUUUCAAUUGGCUUCCUUGUGAAUAAAAAGAUAGAAUUUGGAAUUGUGUACAGCUGUGUGGAAGAUAAGAUGUACACCGGCAGGAAAGGG	3.61 ratio
GGCCUGGGACCGUCCUGGGCUAGUACAAUAGCGGCAGGUGGAGGCUCGAGAGGAAAGUUGUUAGUGGGAGGCAGUGGUAGAGGCCGUCAUGUACGGUCCUUUACUCGAUAGAUGUGUUCU	0.528 ratio
CUUCGGAAAAAAAAAUUACCUUUUCUGACAGUGCUUUCCCUCCCAUAGAUCCACGUUCAAGCUCAAAGGCCAAAACUUUUGCACGGAGCUCAAACAUCUGAUGAAGAAAGAUUUCUGAGA	0.627 ratio
AAUUUCCUGUCAUACUUUUUAGACAUUCACAUCAGACUUACAGAGCAUUGGGCCUCUUUCUAGUUUUGUGUUAUUUCUCAGCUAUGGAUAUGAUCAAAUGAGAACACUGCUUAACUAAUG	0.377 ratio
UAAGUCCAUUUGUAAGCCUUCGCUCAUAAAGUUUUAAAUUCUGGACCAAUAGUGUUUGUUUCCUGAUUAUUGUAUCCAAUACUUUGCGUACUAUGUGACUCACUCUUACUGAUAAUAAAA	0.395 ratio
AGAGAUAAGACAUCCAGGAACAUGCGAGGCUCCCGGAUGAAUGGGUUGCCUAGCCCCACUCACAGCGCCCACUGUAGCUUCUACAGAACCAGAACCUUGCAGGCACUGAGUAAUGAGAAG	0.105 ratio
UACUCAACUUUCUUUCCACAUUUUGAAUUCCAAGACAUUAUUCCUCCAGAUGACUUUCUAACGAGUGAUGAAGAGCAAGAUUUGGUUUUAUUUGGAACUAUGAGAGGACAAGUUGUUGGA	0.212 ratio
AGAUUCCCCCUCCUGAGACCUCCUCCGAAGUUGGAGUCUCUUACAGAUGCCUCAUCCCCUGUUAGCGUUUUGGUCUGGACCACCCAGCCUUGGACAAUUCCCGCCAAUGAAGCUGUUUGC	0.711 ratio

Some of these lines once more (set 4):
Sequence	fluorescence intensity
CTTTCCCGATCTTGCAATGTGGGTGTAGCACATTTG	74.5 a.u.
AACTGCTGAAGTCCCCATGTGACAGTGAGCGGGGTC	284 a.u.
CGGAATTCCTGAACCGCCGTGACTCGGAGAATAAAT	80.9 a.u.
AAATTACTAAGTTTTCACGTGAATTACCCCGTATGA	787 a.u.
CATACCCAACCTTGGTACGTGGGTGAAGATATTTGT	66.3 a.u.
CCCAGACCCACCCAGATCGTGATGGTTGTTACCATC	69 a.u.
ATGAATTACCTAACTCAGGTGACGGGGTGTTCAAAT	130 a.u.
AAATTACTAAGTTGGATAGTGGGTGACGCCGTATGA	77.7 a.u.
GCCAAAGTGGTCTTTCACATGCTTACCTACCCGCTA	75.8 a.u.
GTAACAGTATACGATCATGTGATATTACGTACATAA	1880 a.u.
CTTATCTCGAGGAGTAACGTGGGTAGTTTGTTGGTC	103 a.u.
AAACTATTTTTGGCAGACGTGTTGACTGATGATGAT	89.3 a.u.
GAGGTTGGCCTTTTGCACGTAGCTGTTGCTGTTGCT	69.6 a.u.
